Literature values that unrelated publications cite.
Compare with care: the assays were run in different laboratories.

With `C#C[C@]1(CO)O[C@@H](n2cnc3c(N)nc(F)nc32)C[C@@H]1O` the terminal half-life was 50 to 60 h (human, plasma).
Under “contribution to metabolism”, `N#CCNC(=O)c1ccc(-c2ccnc(Nc3ccc(N4CCOCC4)cc3)n2)cc1` is recorded as 19% (CYP2C19; human hepatocytes).
`CSc1cccnc1N1CCN(Cc2nc3ccccc3[nH]2)CC1` has an IC50 of greater than 10 µM (DRD4; cell-based).
The Cough incidence of `Cn1c(Cn2ccc(C(F)(F)F)c(Oc3cc(Cl)cc(C#N)c3)c2=O)n[nH]c1=O` is reported as 5% (human subjects; dose not given, up to 48 weeks).
With `O=C(Nc1ccc(Oc2ccc(F)cc2)cc1)N1CCc2ncccc2[C@H]1c1ccc(F)cc1` the IC50 was greater than 16 µM (LHCGR; cellular activity).
`CC1=C(/C=C/C(C)=C/C=C/C(C)=C/C(=O)O)C(C)(C)CCC1`: activity class “inactive” (Toxoplasma gondii; parasite growth; concentration not given, drug repurposing screen).
For `Cc1cc(C)c(-n2ccn3nc(-c4cccnc4)cc23)cc1NC(=O)c1cc(C#N)cc(S(F)(F)(F)(F)F)c1`, the Kd was 0.04 µM (LYN; KINOMEscan).
For `N#CCNC(=O)c1ccc(-c2ccnc(Nc3ccc(N4CCOCC4=O)cc3)n2)cc1`, inhibition read “no inhibition” (CYP3A4/5; inhibitor, in vitro; concentration not given).
With `C[C@H](NC(=O)Nc1cc2[nH]ncc2c(CO)n1)c1ccccn1` the IC50 was 1.78 µM (MAPK1; biochemical).
`Nc1c2c(nc3ccccc13)CCCC2` — result for activity: “inactive” (Toxoplasma gondii; concentration not given).
